Experimental data pooled from the literature.
Each line is one published result; not all experiments were run side by side. Numbers after ± are the reported error.

SMILES | cell line | effect on | action | technique | time | setting | IC50
COc1ccc2cc3[n+](cc2c1OCc1cn(Cc2ccc(S(C)(=O)=O)cc2)nn1)CCc1cc2c(cc1-3)OCO2 | SW1990 | cell growth or viability |  | MTT |  |  | 101 µM
C=CC(=O)Nc1cc(Nc2nccc(-c3c(-c4cccc(F)c4)n(C)c4ccccc34)n2)c(OC)cc1N(C)CCN(C)C | NCI-H1975 EGFR T790M/L858R |  |  |  | 72 h |  | 0.0438 ± 0.0005 µM
C[C@@H]1Cc2c([nH]c3ccccc23)[C@@H](c2c(F)cc(/C=C/C(=O)O)cc2F)N1C12CC(C1)C2 | MCF7/luciferase wild type | cell proliferation |  |  |  |  | 0.0018 µM
Cc1cc(CN2CCC(CCCCCCC(=O)NO)CC2)cc(C)c1-c1ncn(C)c1-c1ccc(C#N)c2ccccc12 | HuH-1 | cell growth or viability |  | MTT | 72 h |  | 0.08 µM
COc1cc(/C=C/c2cc(C)n[nH]2)ccc1O | mouse Splenic lymphocyte | cell growth or viability |  | MTT | 48 h |  | 75 µM
COC(=O)[C@H]1[C@H]2CCN(CC[C@]3(O)C(=O)Nc4cc(OC)ccc43)C[C@H]2C[C@@H](OC(=O)c2cc(OC)c(OC)c(OC)c2)[C@@H]1OC | RS4-11 | cell growth or viability |  | trypan blue | 72 h |  | 63.7 µM
N[C@@H](CCC(=O)N[C@@H](CS[Se]Cc1ccc(-c2cc(C(F)(F)F)nn2-c2ccc(S(N)(=O)=O)cc2)cc1)C(=O)NCC(=O)O)C(=O)O | human melanoma cell lines | cell viability |  | MTS |  |  | 7.66 µM
CC(C)(C)ONc1nc(Nc2ccnc(C(F)(F)F)c2)nc(-c2cccc(C(F)(F)F)n2)n1 | TF-1 IDH2 R172K |  |  |  | 72 h |  | 0.0409 ± 0.0016 µM
COCC12CCC(OC)C34C5CC6(O)C(O)C5C(O)(C(O)C6OC)C(CC13)C4N(C)C2 (stereo not shown) | HBE | cell growth or viability |  | MTT |  |  | 27.3 µM
CC(C)c1cccc(C(C)C)c1-n1ccn(-c2c(C(C)C)cccc2C(C)C)c1=[Se].[Cl][Au] | human ovarian cancer cells | cell viability |  | MTT | 72 h |  | 6.2 ± 0.9 µM
CC(=O)O[C@@H]1CC[C@@]2(C)[C@@H](CC[C@]3(C)[C@@H]2C(=O)C=C2[C@@H]4[C@@H](C)[C@H](C)CC[C@]4(C)CC[C@]23C)[C@@]1(C)C(=O)NCCNC(=O)OC(C)(C)C | HBE | cell growth or viability |  | MTT | 48 h |  | > 30 µM
N#C/C(=C\c1cn(-c2ccccc2)nc1-c1ccc(F)cc1)c1nc2ccccc2[nH]1 | SW1990 | cell growth or viability |  | ATP luminescence | 72 h |  | 30.9 µM
C[C@H](C(=O)Nc1ccc(Cn2cc(C(F)(F)F)ccc2=O)cc1)N(C)C | NIH3T3 | cell proliferation |  | CCK-8 |  |  | 442 ± 4.8 µM
CCCCn1cc(C(=O)O)c(=O)c2cc(F)c(Nc3cc(OC)c(OC)c(OC)c3)c(N)c21 | periodontal ligament fibroblasts | cell viability |  | SRB | 72 h |  | 7.52 ± 0.14 µM
CCC12CCc3c(c4ccccc4n3C)CCN(CC3OC31)C2 (stereo not shown) | BV-2 | NO release | inhibitor | Griess |  | LPS-stimulated | ~6 µM
N=C(N)NCCC[C@H](N)C(=O)N[C@@H](CC(=O)N[C@@H](Cc1ccc(O)cc1)C(=O)O)c1cccc2ccccc12 | MCF-7 (no HER2 overexpression) |  |  |  |  |  | > 50 µM
C=C1C(=O)OC2CC3=C[C@@H](C/C(C)=C/C(OC(=O)Cc4cccc5ccccc45)[C@H]12)OC3=O (stereo partly shown) | NES-SA | cell viability |  | MTT | 24 h |  | 0.34 µM
Cc1cc([C@H](C(=O)N2C[C@H](O)C[C@H]2C(=O)N[C@@H](CC(=O)N2CCC(N3CCC(C#Cc4ccc(C(=O)N[C@H]5C(C)(C)[C@H](Oc6ccc(C#N)c(Cl)c6)C5(C)C)cc4)CC3)CC2)c2ccc(-c3scnc3C)cc2)C(C)C)on1 | MDA-MB-453 | cell growth or viability |  |  | 7 days |  | 0.235 µM
CCOP(=O)(OCC)C(Cc1c(F)c(F)c(Sc2ccc(OC)cc2)c(F)c1F)Nc1ccccc1 (stereo not shown) | T98G | cell growth or viability |  | MTT | 48 h |  | 36.8 µM

Some of these lines once more:
SMILES | cell line | effect on | action | technique | time | setting | IC50
C=C1C(=O)OC2CC3=C[C@@H](C/C(C)=C/C(OC(=O)Cc4cccc5ccccc45)[C@H]12)OC3=O (stereo partly shown) | NES-SA | cell viability |  | MTT | 24 h |  | 0.34 µM
